Measurements of several laboratories.
Every numbered part comes from another study and shows a few of its results, in no order. Changes are numbered by the printed parent chain.

Block 1
Target: Interferon regulatory factor 7, full length, phosphomimetic (IRF7, Homo sapiens, UniProt Q92985, residues 1-503, S101K/S471D/S472D/S475D/S476D/S477D/S483D/S484D/S487D)
Method: protein-binding microarray
Molecule type: double-stranded DNA, one strand shown
Matrix: in vitro
Concentration: 250 nM
Setting: 60-bp whole probe
With: salmon DNA 0.4 mg/ml
Baseline: random background probes
Reading: higher = stronger binding
Endpoint: log fluorescence
Shared flanks, not repeated: GCCTAGCAC … GTCTTGATTCGCTTGACGCTGCTG
Target sequence (chain): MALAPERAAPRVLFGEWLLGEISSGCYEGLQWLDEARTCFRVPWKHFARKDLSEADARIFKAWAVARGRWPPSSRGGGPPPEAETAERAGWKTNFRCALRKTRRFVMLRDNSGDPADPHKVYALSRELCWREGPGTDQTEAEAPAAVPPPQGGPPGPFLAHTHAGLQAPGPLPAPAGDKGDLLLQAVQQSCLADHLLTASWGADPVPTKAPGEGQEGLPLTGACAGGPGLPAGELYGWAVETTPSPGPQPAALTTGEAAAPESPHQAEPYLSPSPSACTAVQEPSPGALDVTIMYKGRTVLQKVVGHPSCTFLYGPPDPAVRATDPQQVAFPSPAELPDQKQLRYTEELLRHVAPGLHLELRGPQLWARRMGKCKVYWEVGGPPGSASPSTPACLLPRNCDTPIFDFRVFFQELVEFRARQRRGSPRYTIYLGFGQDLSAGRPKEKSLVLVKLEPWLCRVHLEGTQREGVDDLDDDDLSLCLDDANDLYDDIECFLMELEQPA
Strand = TCATGTATGGATGTGTTACTGTGCTAG; result = 0.106 z-score
Strand = TCTGTTTTTGCTTTCTTTTTGTGCTAG; result = 2.5 z-score
Strand = TTAGGTATCGGTCTCGATTAGTGCTAG; result = 1.87 z-score
Strand = GACGGTATCGGTATCGAGACGTGCTAG; result = 1.15 z-score
Strand = GACGGACTGGACTTACGGGACGTGCTA; result = -0.423 z-score
Strand = TTAGGTCTCCTACTGTTTTAGTGCTAG; result = 0.0644 z-score
Strand = GACGATCTCCGACTGGAGACGTGCTAG; result = -0.345 z-score
Strand = TATATTATATATTTATGTATGTGCTAG; result = 0.793 z-score
Strand = GGTTTTCTCTGGTTCTTGCTGTGCTAG; result = 2.84 z-score
Strand = AAGGTAGCACTTCACAGCAAGTGCTAG; result = -0.687 z-score
Strand = TTAGATAACGGGTATCGATTAGTGCTA; result = 0.74 z-score
Strand = GACGGTTCCCTTATCCTGACGTGCTAG; result = 0.982 z-score
Strand = GACGGTTTCGACTATCGGTACGTGCTA; result = 5.46 z-score
Strand = TTAGGAGTGCTACTGCTTTAGTGCTAG; result = -1.25 z-score
Strand = GACGAGCTGGGGTTTCGAGACGTGCTA; result = 1.2 z-score
Strand = GACGGTATCCTACCGCTGACGTGCTAG; result = -0.211 z-score
Strand = TCAGATCTCAGTCTCGATTAGTGCTAG; result = 1.42 z-score
Strand = GACGGTCTCGGTCTCGGGGCGTGCTAG; result = 0.405 z-score
Strand = GACGGTATTGGGTTTCGGGACGTGCTA; result = 1.91 z-score
Strand = TTAGATGTCAGTTCCGATTAGTGCTAG; result = 0.611 z-score
Strand = TTAGGACTGCTAATCCTTTAGTGCTAG; result = -0.176 z-score
Strand = TCCTTCCACCATCTGATCAGGTGCTAG; result = 1.15 z-score
Strand = GACGATATCGGGTTCCGAGACGTGCTA; result = -0.00472 z-score
Strand = GACGGTATCGGTTTGGGGACGTGCTAG; result = 4.99 z-score
Strand = GTTTTACTTTCTATCTCTGTGTGCTAG; result = 5.96 z-score

Block 2
Target: CCND1, cyclin fold, Cln2 fusion (human)
Method: yeast growth competition, sequencing
Matrix: yeast
Setting: weak parent motif
Baseline: not given
Reading: higher = stronger binding
Endpoint: normalised enrichment score
Parent: PKMYT1 docking peptide (human); SFEPRNLLSLFED; partner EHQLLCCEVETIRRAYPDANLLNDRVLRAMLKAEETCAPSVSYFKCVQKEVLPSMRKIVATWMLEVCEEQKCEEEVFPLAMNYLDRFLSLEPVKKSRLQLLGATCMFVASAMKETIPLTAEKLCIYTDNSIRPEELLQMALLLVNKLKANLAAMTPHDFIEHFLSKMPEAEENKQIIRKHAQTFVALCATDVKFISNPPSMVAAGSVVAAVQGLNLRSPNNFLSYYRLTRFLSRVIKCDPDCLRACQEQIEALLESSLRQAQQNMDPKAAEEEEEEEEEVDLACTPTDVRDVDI
Change = E3W; result = 0.244
Change = D13K; result = 1.01
Change = S9V; result = 0.999
Change = P4Q; result = 1.19
Change = P4K; result = 1.2
Change = L7G; result = 1.17
Change = F11P; result = 0.434
Change = L8E; result = -2.52
Change = L8C; result = 0.735
Change = N6P; result = 1.39
Change = F2W; result = 0.6
Change = E12H; result = 0.899
Change = E12V; result = 1.36
Change = S9Q; result = 0.901
Change = P4Y; result = 0.91
Change = D13V; result = 0.794
Change = S9K; result = 1.32
Change = N6K; result = 0.796

Block 3
Target: Histone acetyltransferase KAT6A, both winged helices, GST fusion (KAT6A, Homo sapiens, UniProt Q92794, residues 1-181)
Method: protein binding microarray
Molecule type: double-stranded DNA, one strand shown
Matrix: in vitro
Concentration: not given
Setting: 8-mer, flanks averaged, mean of 2 arrays, mostly near background
Baseline: not given
Reading: higher = stronger binding
Endpoint: E-score
Residues (chain): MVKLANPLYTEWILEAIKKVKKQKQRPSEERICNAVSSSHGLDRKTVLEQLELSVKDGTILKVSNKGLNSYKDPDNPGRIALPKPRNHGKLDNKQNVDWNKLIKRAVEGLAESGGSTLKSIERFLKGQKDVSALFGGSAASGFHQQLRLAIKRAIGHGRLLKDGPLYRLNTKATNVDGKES
Strand = TAGCCTGA; result = -0.276
Strand = CATATGAC; result = -0.0602
Strand = TACTCAAA; result = -0.0325
Strand = CACTTAAC; result = -0.241
Strand = CTTGGTAC; result = -0.0494
Strand = CAGCCACG; result = 0.0243
Strand = GCCGCAGC; result = 0.232
Strand = GTGCAGAA; result = -0.006
Strand = AATGGTAC; result = -0.0917
Strand = CTGGGGTC; result = -0.283
Strand = GCATTGTA; result = 0.029
Strand = AGTGGGGG; result = -0.281
Strand = CTTAGCGA; result = 0.0999
Strand = CCAATTAA; result = -0.153
Strand = GTGTCCCA; result = 0.0789
Strand = CGTTTCAC; result = 0.133
Strand = AGTTATTA; result = -0.0394
Strand = AACTCGGA; result = -0.0248
Strand = AAAGTCTA; result = -0.0726
Strand = CTCATTAC; result = -0.00615
Strand = AACGTATG; result = -0.0488
Strand = GATTGGGA; result = -0.244
Strand = CAGCACTC; result = -0.118
Strand = GGTAAGAC; result = -0.0212
Strand = AATTGAGC; result = -0.156

Block 4
Target: Hepatocyte nuclear factor 3-alpha (Foxa1, Mus musculus, UniProt P35582, residues 1-468, full length assumed)
UniProt P35582, sequence (whole entry, looked up): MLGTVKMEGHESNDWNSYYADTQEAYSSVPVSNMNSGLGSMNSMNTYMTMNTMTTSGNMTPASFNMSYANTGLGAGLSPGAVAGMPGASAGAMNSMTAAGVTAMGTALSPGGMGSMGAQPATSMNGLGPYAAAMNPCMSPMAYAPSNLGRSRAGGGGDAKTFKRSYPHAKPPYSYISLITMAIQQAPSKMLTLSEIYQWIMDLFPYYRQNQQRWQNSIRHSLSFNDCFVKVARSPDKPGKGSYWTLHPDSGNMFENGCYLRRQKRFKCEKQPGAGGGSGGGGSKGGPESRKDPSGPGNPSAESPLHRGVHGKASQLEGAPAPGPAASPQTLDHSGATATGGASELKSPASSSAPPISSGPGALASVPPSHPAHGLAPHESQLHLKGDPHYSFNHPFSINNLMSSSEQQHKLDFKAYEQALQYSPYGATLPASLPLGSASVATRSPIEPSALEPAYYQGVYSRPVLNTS
Method: EMSA with sequencing
Molecule type: double-stranded DNA, one strand shown
Matrix: in vitro
Concentration: 10 and 20 nM
Setting: whole designed probe, mean of two concentrations, ends assumed
Baseline: negative control set to 0
Reading: higher = stronger binding
Endpoint: normalised bound fraction
Shared flanks, not repeated: GTGAGCGGTGCCCATTGATGGGGAAC … TTTCACTGGGATCGTGGGGAC
Strand = CAAGGAAGGAAGTCATTAACCCACGACCTTGGGTGTGCTACTTTGTACCACTCACCACATGTTAAAACTCTTCTCTCACTATAGGGTAATTTCTTGTTTACTTAAATCCCCAGTTACTTATTCAAAATTTATTCAAAAATATGTGTATTAATTTCTCACTGTGGGTCAGGGACTCTGATAAGGCAGAACCTCT; result = 0.451 ratio
Strand = TCATTCGGTGAATATTGCTAATTACTAGAGCCTTCATGGGCAAAGGACAAGGTGGCTGGGCACTGGCCAACTGCCAGCTGTTTCTGGGCCAAAGCAATCTACTTGTGCCTTAGAATGCACTGGTATGGCTGGTGACAACCCCACCAATCCCTAGAGCTCCACTCCAGCCTCTCAATGGAAAACTTTTCTCCTG; result = -0.0554 ratio
Strand = CACTCATAGTCTTGCTATCCTTCATATACAGAGATGACCCTCCCAAGCCTAAAATCAACAGGGGGAGGCATAGAGCTGTCCTTCTGGCTCTAATGTTTGCTTTACCATTCCACGCCCATCATCTTAGTCCAGCATGTGAGAGCCAGTGTGAAGTGAGCAGAATATGGCATAAGTATGGAGTCATACATCCTTA; result = 0.353 ratio
Strand = GCGGGCGCGTCGTCGGCGAACTTCCTGGTCCTCTGCATCCGCCCCCGTGACGCACGCGGGCCGCCGGGGACTGGCCGCCCGCGTGCCCGCACTGTTGACTTTGCCATCCTCGGAGATGGGCGGGCCCTGTTTTTGTAGGGTCGGCGCTGTTGAATCAGAAGCAGGCAGGGGCGGAGGTGGCTGGGGAGGCACC; result = 0.235 ratio
Strand = ATCTTCCCCCTCTTCCTTGCCCCACCAGCTCACCTTCCCGGGTTATTTGCACAAAGGAAAATAAATAAAGCCGGCATTCGTTAACGCAGTTCACGCGCATACTGCTGTTTGCTCTGCATCTAACATGGTCCTTACGCGACGCCAGGCTCCGGGAGAGCAAAGCACCGTGTCAGGCGCATGATCCGGGGTGGCC; result = 0.389 ratio
Strand = AAACAGCTCATGCTTATTATCTTATTACAGGAATGCCACTGGTTAAATCAGGCTCTGAATATAAATAGCCATATTACTGCCATCAGGCATCAATGTTTATTTAGTGGCTGTGAGTCATGCATACCTCTTTGATCGGGTTTGGAATGAGCCATTGCCGTTTTTGTTCAAAAAGGTTATTTGCAAAGGCTACAGA; result = 0.503 ratio
Strand = GCTCTGGGCAGTCACCCAGGTACCACAAAATCCCTATGGGTGTGCATCTCCTTTGTTACCCATGTGTATACTCCCTCCCTGACGTCAAAGCCAAGATTGCTCAGCTTGATGAAAATGTGTTTCTTGAAAGCCACATTCTTTTCCTTTTCTGAGCCAGTGAGGTTTCTGCAGAGCTCATGGTGCTGATGTTTCC; result = -0.0778 ratio
Strand = TCCTTTATCCCAACATGTTTATACAGACAAAACCAGGTTAAAATCGACACAAGGTCAACTTGAAATGGGGAAAGAGGAAGGTGAGCTCACAAAATAAACATGAAGTCTTGTGTACAAGCATCTGCAGAAGAGTTCAGCCTCACCACTTGGGTAATGCTGTTGGAATGTGGTCTGGGTTCACTGTATTTGAATG; result = 0.336 ratio

Excerpt of the above (block 2):
Change = E3W; result = 0.244
Change = D13K; result = 1.01
Change = S9V; result = 0.999
Change = P4Q; result = 1.19
Change = P4K; result = 1.2
